Measurements pooled from the literature.
A part holds a random share of what one study measured. Positions count from the first letter of the parent shown.

Series 1
Target: CCNE2, cyclin fold, Cln2 fusion (human)
Method: yeast growth competition, sequencing
Matrix: yeast
Notes: weak parent motif
Relative to: not given
Direction: higher = stronger binding
Endpoint: normalised enrichment score
Parent: ORC1 docking peptide (human); PRARKRLELGNLG; partner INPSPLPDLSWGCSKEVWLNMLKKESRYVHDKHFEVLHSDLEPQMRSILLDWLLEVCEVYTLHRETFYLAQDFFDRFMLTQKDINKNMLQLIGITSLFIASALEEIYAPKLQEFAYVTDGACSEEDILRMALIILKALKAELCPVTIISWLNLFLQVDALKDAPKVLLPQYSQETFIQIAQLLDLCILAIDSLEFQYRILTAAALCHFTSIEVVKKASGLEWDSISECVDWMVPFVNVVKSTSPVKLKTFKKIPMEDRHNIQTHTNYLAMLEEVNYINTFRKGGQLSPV
PRARKFLELGNLG [R6F]: 1.32
PRARKRHELGNLG [L7H]: 0.282
PRARKRGELGNLG [L7G]: -0.0522
PRTRKRLELGNLG [A3T]: 0.971
PRARKRLELGNFG [L12F]: 1.39
PRKRKRLELGNLG [A3K]: 0.593

Series 2
Target: Sal-like protein 4, full length isoform B (SALL4, Homo sapiens, UniProt Q9UJQ4-2, residues 1-616)
Method: universal PBM
Form: double-stranded DNA, one strand shown
Matrix: in vitro
Concentration: not given
Notes: 8-mer, flanks averaged, mean of replicates
Direction: higher = stronger binding
Endpoint: E-score
GAAGATAA: 0.256
CATGAGGG: -0.0622
GTCTCGAA: -0.0178
AGTAGCCC: -0.159
ATCATGCG: -0.017
ATCTTGGG: -0.0483
GTTTCAGA: 0.031
AGTAAACC: -0.0151

Series 3
Target: Interferon regulatory factor 7, full length, phosphomimetic (IRF7, Homo sapiens, UniProt Q92985, residues 1-503, S471D/S472D/S475D/S476D/S477D/S483D/S484D/S487D)
UniProt Q92985, sequence (whole entry, unmodified, looked up): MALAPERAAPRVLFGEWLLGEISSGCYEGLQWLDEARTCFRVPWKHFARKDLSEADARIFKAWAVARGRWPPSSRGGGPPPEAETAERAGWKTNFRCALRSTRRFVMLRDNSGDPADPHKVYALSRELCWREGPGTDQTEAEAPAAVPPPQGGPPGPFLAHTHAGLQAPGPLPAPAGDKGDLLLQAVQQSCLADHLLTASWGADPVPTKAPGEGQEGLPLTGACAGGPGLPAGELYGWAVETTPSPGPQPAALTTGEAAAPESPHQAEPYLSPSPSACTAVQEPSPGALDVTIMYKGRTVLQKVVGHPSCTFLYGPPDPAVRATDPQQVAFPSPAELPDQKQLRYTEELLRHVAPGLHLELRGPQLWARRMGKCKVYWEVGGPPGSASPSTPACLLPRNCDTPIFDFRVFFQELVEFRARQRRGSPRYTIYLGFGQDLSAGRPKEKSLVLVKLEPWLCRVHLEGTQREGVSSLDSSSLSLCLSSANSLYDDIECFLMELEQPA
Method: protein-binding microarray
Form: double-stranded DNA, one strand shown
Matrix: in vitro
Concentration: 2200 nM top
Notes: 60-bp whole probe
With: salmon DNA 0.4 mg/ml
Relative to: random background probes
Direction: higher = stronger binding
Endpoint: fitted relative affinity
All sequences stand within: GCCTAGCAC … GTCTTGATTCGCTTGACGCTGCTG
TTAGGACTGGGTCTCGGTTTGTGCTAG: 0.684 z-score
TTAGGTATCGGGATTGGGTTAGTGCTA: -0.00604 z-score
TATAATATATATTCATATATGTGCTAG: 0.376 z-score
TTAGGACTGTTTCTCCTTTAGTGCTAG: 1.29 z-score
GACGGTTTCCTCCTGCTGACGTGCTAG: 2.42 z-score
TTAGGTTTCGACTATCGGTTTGTGCTA: 4.51 z-score
TTAAGTTTCGGTCTCGGTTAGTGCTAG: 8.38 z-score
GACGGTTCCGGTTTCGCGACGTGCTAG: 4.22 z-score

Further values, each from its own experiment
PhoQ, residues 284 288 289 292 302 303 SQSLSM  fold induction (PhoP, residues 12 14 15 18 19 NFCKL (Escherichia coli, UniProt P23836); Sort-seq, measured: YFP reporter; E. coli; PhoQ-PhoP variant library, with: 10 µM Mg2+; relative to: high Mg2+ state, higher = stronger signaling): 10.2
